# Measurements pooled from the literature.
# Each line is one published result; not all experiments were run side by side. Numbers after ± are the reported error.
# S1PR1: Sphingosine 1-phosphate receptor 1 (S1PR1, Homo sapiens, UniProt P21453)
# Sequence of UniProt P21453 (whole entry, looked up): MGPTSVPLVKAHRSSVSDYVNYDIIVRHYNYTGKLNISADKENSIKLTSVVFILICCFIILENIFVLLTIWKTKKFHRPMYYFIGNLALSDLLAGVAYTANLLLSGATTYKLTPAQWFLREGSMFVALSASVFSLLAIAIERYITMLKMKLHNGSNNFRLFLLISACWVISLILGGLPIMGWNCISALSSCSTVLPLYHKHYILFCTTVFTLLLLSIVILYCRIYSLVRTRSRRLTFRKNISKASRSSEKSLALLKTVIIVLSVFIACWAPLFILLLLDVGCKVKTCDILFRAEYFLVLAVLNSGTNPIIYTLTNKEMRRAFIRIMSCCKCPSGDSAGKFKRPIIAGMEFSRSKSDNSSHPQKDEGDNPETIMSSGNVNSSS
# Sequence of UniProt Q9H228 (whole entry, looked up): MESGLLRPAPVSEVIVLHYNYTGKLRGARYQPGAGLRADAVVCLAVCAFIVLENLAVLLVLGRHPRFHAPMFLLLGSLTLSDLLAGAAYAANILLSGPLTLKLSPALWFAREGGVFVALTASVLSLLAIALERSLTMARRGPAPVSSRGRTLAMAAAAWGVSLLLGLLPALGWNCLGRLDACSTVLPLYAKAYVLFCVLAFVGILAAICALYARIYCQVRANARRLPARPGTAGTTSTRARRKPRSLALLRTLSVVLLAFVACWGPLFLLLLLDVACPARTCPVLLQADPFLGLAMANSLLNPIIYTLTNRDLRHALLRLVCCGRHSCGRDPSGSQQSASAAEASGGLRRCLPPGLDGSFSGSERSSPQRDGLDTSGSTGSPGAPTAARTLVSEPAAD
# Sequence of UniProt Q704Y3 (whole entry, unmodified, looked up): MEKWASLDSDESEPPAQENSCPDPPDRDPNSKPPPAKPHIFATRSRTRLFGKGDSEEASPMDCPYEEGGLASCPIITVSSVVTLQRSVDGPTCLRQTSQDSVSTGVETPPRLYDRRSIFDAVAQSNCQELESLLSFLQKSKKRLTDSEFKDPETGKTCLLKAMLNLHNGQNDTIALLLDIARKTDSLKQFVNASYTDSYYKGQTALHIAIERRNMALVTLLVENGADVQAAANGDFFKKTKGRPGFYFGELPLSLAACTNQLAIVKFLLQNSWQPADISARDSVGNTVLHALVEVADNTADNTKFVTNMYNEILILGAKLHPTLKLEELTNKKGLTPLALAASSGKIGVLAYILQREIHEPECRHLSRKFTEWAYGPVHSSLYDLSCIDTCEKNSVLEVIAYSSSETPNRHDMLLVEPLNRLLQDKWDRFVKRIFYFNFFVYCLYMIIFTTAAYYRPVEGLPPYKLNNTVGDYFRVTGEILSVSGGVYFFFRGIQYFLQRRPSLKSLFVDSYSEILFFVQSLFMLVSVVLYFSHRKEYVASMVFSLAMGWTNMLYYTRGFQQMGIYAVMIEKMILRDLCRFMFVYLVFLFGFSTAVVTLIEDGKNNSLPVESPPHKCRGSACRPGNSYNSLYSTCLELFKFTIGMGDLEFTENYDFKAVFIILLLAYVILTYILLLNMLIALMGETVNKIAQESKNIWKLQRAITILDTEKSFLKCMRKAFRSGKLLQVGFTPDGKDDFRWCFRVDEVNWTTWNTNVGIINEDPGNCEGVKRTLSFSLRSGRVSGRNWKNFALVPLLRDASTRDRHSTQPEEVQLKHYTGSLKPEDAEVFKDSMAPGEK
# Sequence of UniProt Q61143 (whole entry, unmodified, looked up): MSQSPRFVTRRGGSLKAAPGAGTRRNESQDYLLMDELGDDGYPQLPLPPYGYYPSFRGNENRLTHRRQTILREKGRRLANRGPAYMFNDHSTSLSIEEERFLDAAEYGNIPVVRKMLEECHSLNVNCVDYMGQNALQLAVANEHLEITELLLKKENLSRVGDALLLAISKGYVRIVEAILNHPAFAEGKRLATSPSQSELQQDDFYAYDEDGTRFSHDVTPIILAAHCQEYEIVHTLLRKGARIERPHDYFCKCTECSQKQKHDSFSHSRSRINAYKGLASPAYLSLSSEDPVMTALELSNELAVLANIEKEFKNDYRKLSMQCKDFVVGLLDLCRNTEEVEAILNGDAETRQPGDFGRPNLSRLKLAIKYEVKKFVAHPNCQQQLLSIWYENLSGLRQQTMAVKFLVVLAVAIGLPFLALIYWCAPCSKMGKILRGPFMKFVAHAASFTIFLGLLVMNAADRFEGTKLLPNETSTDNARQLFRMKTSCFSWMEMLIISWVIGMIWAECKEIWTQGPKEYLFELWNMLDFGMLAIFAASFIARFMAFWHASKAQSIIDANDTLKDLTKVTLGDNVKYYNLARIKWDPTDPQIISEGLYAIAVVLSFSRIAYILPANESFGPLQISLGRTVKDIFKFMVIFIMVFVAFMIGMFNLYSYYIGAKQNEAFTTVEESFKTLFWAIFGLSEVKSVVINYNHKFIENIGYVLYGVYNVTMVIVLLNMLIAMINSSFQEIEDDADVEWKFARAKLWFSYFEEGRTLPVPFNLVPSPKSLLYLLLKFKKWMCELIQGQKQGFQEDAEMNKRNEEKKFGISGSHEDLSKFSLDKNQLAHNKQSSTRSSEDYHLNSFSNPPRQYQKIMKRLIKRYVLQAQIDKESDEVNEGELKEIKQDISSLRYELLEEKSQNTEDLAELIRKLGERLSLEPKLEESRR
# Sequence of UniProt P00519 (whole entry, looked up): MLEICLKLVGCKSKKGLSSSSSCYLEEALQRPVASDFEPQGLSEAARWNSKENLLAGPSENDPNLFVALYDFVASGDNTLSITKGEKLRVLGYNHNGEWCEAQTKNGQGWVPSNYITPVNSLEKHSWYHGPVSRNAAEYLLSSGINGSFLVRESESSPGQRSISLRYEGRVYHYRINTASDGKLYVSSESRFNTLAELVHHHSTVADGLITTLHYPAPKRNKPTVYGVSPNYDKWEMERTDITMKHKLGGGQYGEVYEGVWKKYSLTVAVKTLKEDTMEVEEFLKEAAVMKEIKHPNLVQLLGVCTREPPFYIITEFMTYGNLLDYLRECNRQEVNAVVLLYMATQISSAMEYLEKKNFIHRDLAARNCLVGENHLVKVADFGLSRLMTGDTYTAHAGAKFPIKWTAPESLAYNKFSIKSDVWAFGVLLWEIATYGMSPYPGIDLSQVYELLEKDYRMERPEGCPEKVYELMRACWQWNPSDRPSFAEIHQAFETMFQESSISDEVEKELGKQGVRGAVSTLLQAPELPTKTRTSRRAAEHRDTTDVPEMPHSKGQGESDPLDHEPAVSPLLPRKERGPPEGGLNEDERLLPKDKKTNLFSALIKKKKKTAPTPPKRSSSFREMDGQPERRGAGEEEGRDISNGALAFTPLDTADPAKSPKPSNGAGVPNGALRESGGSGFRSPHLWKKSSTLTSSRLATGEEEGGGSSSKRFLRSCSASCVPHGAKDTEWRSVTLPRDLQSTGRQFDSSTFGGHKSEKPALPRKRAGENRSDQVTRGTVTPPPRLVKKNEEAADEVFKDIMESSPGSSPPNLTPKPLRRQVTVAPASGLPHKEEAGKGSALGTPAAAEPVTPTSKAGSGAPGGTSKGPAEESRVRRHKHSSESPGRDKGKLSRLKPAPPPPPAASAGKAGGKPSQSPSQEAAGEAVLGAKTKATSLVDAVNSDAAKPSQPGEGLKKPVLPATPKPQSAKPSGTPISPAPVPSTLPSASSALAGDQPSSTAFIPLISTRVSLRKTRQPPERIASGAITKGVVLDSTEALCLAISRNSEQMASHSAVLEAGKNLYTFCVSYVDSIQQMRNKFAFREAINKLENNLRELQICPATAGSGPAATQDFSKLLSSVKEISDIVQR
# Sequence of UniProt Q13255 (whole entry, looked up): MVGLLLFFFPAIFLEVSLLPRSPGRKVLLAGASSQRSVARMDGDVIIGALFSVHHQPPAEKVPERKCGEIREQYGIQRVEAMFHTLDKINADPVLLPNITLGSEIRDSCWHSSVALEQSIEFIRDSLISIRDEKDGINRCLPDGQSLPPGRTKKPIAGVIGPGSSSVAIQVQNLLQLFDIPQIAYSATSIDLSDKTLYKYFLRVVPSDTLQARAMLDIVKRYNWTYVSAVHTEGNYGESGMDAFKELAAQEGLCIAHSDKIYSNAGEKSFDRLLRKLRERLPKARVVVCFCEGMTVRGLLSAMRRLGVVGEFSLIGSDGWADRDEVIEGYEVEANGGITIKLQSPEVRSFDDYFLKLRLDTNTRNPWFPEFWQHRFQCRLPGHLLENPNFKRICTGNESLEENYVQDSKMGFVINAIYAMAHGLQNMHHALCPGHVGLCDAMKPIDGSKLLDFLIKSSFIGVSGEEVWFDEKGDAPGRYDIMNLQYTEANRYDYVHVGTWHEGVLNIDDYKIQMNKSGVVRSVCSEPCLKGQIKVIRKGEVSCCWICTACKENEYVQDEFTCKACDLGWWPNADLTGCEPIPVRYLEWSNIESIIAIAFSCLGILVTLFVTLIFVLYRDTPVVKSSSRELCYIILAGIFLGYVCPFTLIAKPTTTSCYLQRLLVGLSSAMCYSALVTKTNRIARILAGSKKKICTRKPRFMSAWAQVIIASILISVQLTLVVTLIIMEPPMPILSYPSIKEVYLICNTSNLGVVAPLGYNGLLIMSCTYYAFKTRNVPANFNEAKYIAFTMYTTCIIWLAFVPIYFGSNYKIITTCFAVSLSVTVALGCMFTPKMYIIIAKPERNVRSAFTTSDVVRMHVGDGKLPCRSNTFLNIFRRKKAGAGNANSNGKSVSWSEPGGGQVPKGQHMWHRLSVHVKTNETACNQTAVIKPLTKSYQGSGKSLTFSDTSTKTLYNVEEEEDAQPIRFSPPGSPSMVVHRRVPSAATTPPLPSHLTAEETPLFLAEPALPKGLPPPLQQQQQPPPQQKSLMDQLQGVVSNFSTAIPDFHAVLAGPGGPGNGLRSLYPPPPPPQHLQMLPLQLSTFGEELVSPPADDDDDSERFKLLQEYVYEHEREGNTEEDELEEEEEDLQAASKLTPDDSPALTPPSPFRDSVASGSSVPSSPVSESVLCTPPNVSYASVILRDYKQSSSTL
SMILES,target,assay,system,conditions,EC50
C[N+](C)(CF)CC(=O)O,TMA lyase,"TMA production, ex vivo","Proteus mirabilis, wild type",,320 µM
Cc1cccc(-c2ccc(C3C(CO)N4CCCCN(S(=O)(=O)c5ccccc5C)CC34)cc2)c1 (centres unmarked),"IDE (Homo sapiens, UniProt P14735)",,,,0.1 µM
Cc1ccc(Oc2cc(C(=O)NCc3ccccn3)nc3ccsc23)cn1,"GRM5 (Homo sapiens, UniProt P41594)","calcium signal, agonist",,,> 30 µM
CCCCCCCC/C=C\CCCCCCCC(=O)NCCO,"Trpv1 (Mus musculus, UniProt Q704Y3, T551V)","ion current, agonist, whole-cell patch clamp",,"24 °C, T551V, +80 mV",0.28 ± 0.08 µM
CCCCCCCOc1ccc(CC[C@](N)(CO)COP(=O)(O)O)cc1C(F)(F)F,"S1PR5 (Homo sapiens, UniProt Q9H228)","calcium signal, agonist",,,0.00047 µM
COc1cc(-c2cnc3nc2NCCCNS(=O)(=O)c2cc(ccc2O)N3)ccc1F,"ABL1 (Homo sapiens, UniProt P00519)","target engagement in cells, BRET",,,17 µM
O=C(Nc1ccc(N2C(=O)c3ccc(F)cc3C2=O)c(Cl)c1)c1ncccc1Cl,"GRM1 (Homo sapiens, UniProt Q13255)","calcium mobilization, positive allosteric modulator",T-REx-293,with: glutamate EC20,3.88 µM
CCc1nc(-c2ccc(-c3ccc(CCC(N)(CO)CO)cc3)cc2)co1,S1PR1,"β-arrestin recruitment, agonist",,,0.253 µM
CC[C@H](C)[C@H](NC(=O)CN)C(=O)N[C@H](C(=O)N[C@@H](CC(N)=O)C(=O)N[C@H](C(=O)N[C@@H](CC(C)C)C(=O)N[C@@H](CCC(N)=O)C(=O)N[C@@H](CCCCN)C(=O)N[C@@H](Cc1ccc(O)cc1)C(=O)N[C@@H](Cc1ccc(O)cc1)C(=O)N[C@H]1CSSC[C@@H]2NC(=O)[C@H](CCCCN)NC(=O)[C@H](CCCNC(=N)N)NC(=O)CNC(=O)[C@H](CCCNC(=N)N)NC(=O)[C@H]([C@@H](C)O)NC(=O)[C@H](CO)NC(=O)[C@@H]3CSSC[C@H](NC(=O)[C@H](CCCNC(=N)N)NC(=O)CNC(=O)CNC(=O)[C@H](CCCNC(=N)N)NC(=O)[C@H](C(C)C)NC(=O)[C@H](CCCNC(=N)N)NC1=O)C(=O)N[C@@H](C)C(=O)N[C@@H](C(C)C)C(=O)N[C@@H](CC(C)C)C(=O)N[C@@H](CO)C(=O)N[C@@H](CSSC[C@@H](C(=O)N[C@@H](CCCNC(=N)N)C(=O)N[C@@H](CCCNC(=N)N)C(=O)N[C@@H](CCCCN)C(=O)N[C@@H](CCCCN)C(=O)O)NC2=O)C(=O)N[C@@H](CC(C)C)C(=O)N1CCC[C@H]1C(=O)N[C@@H](CCCCN)C(=O)N[C@@H](CCC(=O)O)C(=O)N[C@@H](CCC(=O)O)C(=O)N[C@@H](CCC(N)=O)C(=O)N[C@@H]([C@@H](C)CC)C(=O)NCC(=O)N[C@@H](CCCCN)C(=O)N3)[C@@H](C)O)[C@@H](C)CC,"Mas-related G-protein coupled receptor member X3 (Homo sapiens, UniProt Q96LB0)","calcium signal, agonist, fluorescence",,,10.8 µM
CCc1nc(-c2ccc(-c3ccc(CCC(N)(CO)COP(=O)(O)O)cc3)cc2)co1 (centres unmarked),S1PR1,"β-arrestin recruitment, agonist",,,0.0124 µM
O=C(c1cc2c(s1)CCCCC2)N1CCC(n2c(=O)[nH]c3ccccc32)CC1,"Trpc6 (Mus musculus, UniProt Q61143, N701Q)","channel activation, agonist, whole-cell patch clamp",,,5.37 ± 0.3 µM
